Measured values collected from several papers.
Compare with care: the assays were run in different laboratories. Numbers after ± are the reported error.

Under “renal clearance ratio”, `Oc1ncnc2[nH]ncc12` is recorded as 87.5% (human, male, urine and plasma; oral, 10 mg, together with: allopurinol 300 mg; baseline: combination over alone).
`O=C(c1cccnc1-c1ccncc1)N1CCC(O)(Cc2ccccc2)CC1` has a renal clearance of 6.33 mL/min (healthy human, urine; oral, 400 mg once daily, day 14, arithmetic mean).
`CC(C)(Sc1ccncc1-c1ccc(C#N)c2ccccc12)C(=O)O`: “renal clearance (0-72 h)” 13.5 mL/min (humans, male, normal renal function; oral, 15 mg).
For `CC[C@@H]1CN(C(=O)NCC(F)(F)F)C[C@@H]1c1cnc2cnc3[nH]ccc3n12`, the renal clearance was 88.7 mL/min (human, normal renal function, urine and plasma; oral, 15 mg single dose, extended release, fasted, geometric mean).
The renal clearance of `CCOc1ccc(Cc2cc([C@]34OC[C@](CO)(O3)[C@@H](O)[C@H](O)[C@H]4O)ccc2Cl)cc1` is reported as 0.99 mL/min (human, type 2 diabetes, mild renal impairment; oral, 15 mg).
`CC(C)(C)OC[C@@H]1C(=O)NCCN1C(=O)C[C@H](N)Cc1cc(F)c(F)cc1F` gave a renal clearance of 280 ± 117 mL/min (human; 10 mg once daily, steady state, day 10).
`COc1cc(C(=O)NC2CCN(C)CC2)c(F)cc1Nc1ncc(C(F)(F)F)c(Oc2cccc3c2C(=O)N(C)C3)n1` gave a renal clearance of 13.7 mL/min (human patients, plasma and urine; oral, 200 mg once daily, 0-24 h, steady state, cycle 1).
`C[C@@H]1CCC[C@H](n2cnc(-c3cc(Cl)ccc3-n3cc(Cl)nn3)cc2=O)c2cc(ccn2)-c2c(cnn2C(F)F)NC1=O` gave a renal clearance of 4.38 mL/min (human, severe renal impairment, plasma and urine; oral, 60 mg single dose).
`CC(C)(Sc1ccncc1-c1ccc(C#N)c2ccccc12)C(=O)O` — result for “renal clearance ratio”: 105% (human, male, urine and plasma; oral, 10 mg, together with: allopurinol 300 mg; baseline: combination over alone).
`COC(=O)c1ccc2c(c1)NC(=O)/C2=C(\Nc1ccc(N(C)C(=O)CN2CCN(C)CC2)cc1)c1ccccc1`: “renal clearance (0-72 h)” 19.5 mL/min (healthy human controls matched to Child-Pugh B, urine and plasma; oral, 100 mg single dose, geometric mean).
`NCCCS(=O)(=O)O` gave a renal clearance of 128 to 221 mL/min (human, both sexes, urine and plasma; mean across cohorts and days).

Some of these lines once more:
`O=C(c1cccnc1-c1ccncc1)N1CCC(O)(Cc2ccccc2)CC1` has a renal clearance of 6.33 mL/min (healthy human, urine; oral, 400 mg once daily, day 14, arithmetic mean).
`COC(=O)c1ccc2c(c1)NC(=O)/C2=C(\Nc1ccc(N(C)C(=O)CN2CCN(C)CC2)cc1)c1ccccc1`: “renal clearance (0-72 h)” 19.5 mL/min (healthy human controls matched to Child-Pugh B, urine and plasma; oral, 100 mg single dose, geometric mean).
